Published values gathered from unrelated publications.
Compare with care: the assays were run in different laboratories.
UniProt P51659, sequence (whole entry, looked up): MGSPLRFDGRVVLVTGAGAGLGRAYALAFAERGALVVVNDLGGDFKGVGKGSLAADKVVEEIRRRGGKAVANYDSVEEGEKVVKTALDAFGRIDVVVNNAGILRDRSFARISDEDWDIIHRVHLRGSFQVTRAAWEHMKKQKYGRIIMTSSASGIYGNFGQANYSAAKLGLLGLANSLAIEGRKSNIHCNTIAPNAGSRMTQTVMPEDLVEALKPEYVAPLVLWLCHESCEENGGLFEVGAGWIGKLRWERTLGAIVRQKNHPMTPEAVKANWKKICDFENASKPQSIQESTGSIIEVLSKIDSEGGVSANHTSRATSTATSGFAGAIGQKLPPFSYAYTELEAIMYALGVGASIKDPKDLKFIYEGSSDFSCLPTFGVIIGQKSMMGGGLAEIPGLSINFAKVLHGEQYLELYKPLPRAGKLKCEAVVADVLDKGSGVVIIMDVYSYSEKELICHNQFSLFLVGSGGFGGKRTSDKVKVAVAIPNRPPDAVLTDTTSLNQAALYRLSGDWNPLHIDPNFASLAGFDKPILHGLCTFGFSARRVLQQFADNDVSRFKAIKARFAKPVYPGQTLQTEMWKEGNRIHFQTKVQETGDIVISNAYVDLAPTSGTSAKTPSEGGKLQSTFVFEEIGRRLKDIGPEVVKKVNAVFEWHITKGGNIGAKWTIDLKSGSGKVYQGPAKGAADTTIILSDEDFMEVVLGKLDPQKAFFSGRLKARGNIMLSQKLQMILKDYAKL

| SMILES | tested on | test | test system | setting | scale | quantity | result |
| --- | --- | --- | --- | --- | --- | --- | --- |
| CNc1ncc2c(/C=C/C(=O)N3CCC4(CC3)OCCO4)nn(Cc3cccc(C(F)(F)F)c3)c2n1 | EPC-2 pre-malignant | cell viability, PrestoBlue |  | 120 h |  | EC50 | 150 nM |
| C[C@H]1CN(c2n[nH]c3nc(N[C@H]4CC[C@H](NS(=O)(=O)CCC(F)(F)F)CC4)ncc23)CCO1 | HSD17B4 (Homo sapiens, UniProt P51659) | inhibitor, Kinobeads competition profiling |  | 20 µM | baseline: vehicle | relative abundance | 1.12 |
| CC(N)C(=O)OC(C)(C)Cc1ccc(Cl)cc1 (stereo not drawn) | Plasmodium falciparum |  | GB4 |  |  | IC50 | 1260 nM |
| O=C(NC1C2CC3CC(C2)CC1C3)c1cc(-c2ccccc2F)c[nH]1 (stereo not drawn) | Vero |  |  | 48 h |  | IC50 | 21.2 µg/mL |
| CN1CC[C@]23c4c5ccc(O)c4O[C@H]2[C@@H](O)C=C[C@H]3[C@H]1C5 | CHO-WT cells |  | cell membranes without MOR | concentration not given, compound alone, basal |  | G-protein activity | no effect |
| O=C(NC1CCCCCCC1)c1cc(-c2ccncc2Cl)c[nH]1 | Vero |  |  | 48 h |  | IC50 | > 64 µg/mL |
| Cn1c(SCc2ccc(Cl)cc2)nnc1-c1cncc(C#Cc2ccccc2)c1 | Vero |  |  |  | baseline: Vero CC50 over Mtb IC50 | selectivity index | > 46 |
| COc1ccc(-n2nc(C(C)=O)s/c2=N\N=C(/C)c2ccc(NC(C)=O)cc2)cc1 | HepG2 |  |  | 10 µM |  | viability | 6.09% |
| O=C(NC1C2CC3CC(C2)CC1C3)c1cc(-c2ccc(F)cc2F)c[nH]1 (stereo not drawn) | Vero |  |  | 48 h |  | IC50 | 14.4 µg/mL |
| O=C1NC(=O)C(C2C3=C(CCCC3=O)Oc3ccc([N+](=O)[O-])cc32)C(=O)N1 (stereo not drawn) | mouse preadipocytes | qPCR, item: HSL |  | IC20, 14 days, adipogenic induction | baseline: untreated cells | mRNA level | decreased |
| CNc1ncc2c(/C=C/C(=O)N3CCC4(CC3)OCCO4)nn(Cc3cccc(C)c3)c2n1 | EPC-2 pre-malignant | cell viability, PrestoBlue |  | 120 h |  | EC50 | 910 nM |
| CN1C(=O)C(C2C3=C(CC(C)(C)CC3=O)Oc3c(O)cccc32)C(=O)N(C)C1=O (stereo not drawn) | mouse preadipocytes | qPCR, item: Pref-1 |  | IC20, 14 days, adipogenic induction | baseline: untreated cells | mRNA level | decreased |
| O=C(NC1C2CC3CC(C2)CC1C3)c1cc(-c2ccncc2)c[nH]1 (stereo not drawn) | Vero |  |  | 48 h |  | IC50 | 44.7 µg/mL |
| OC(c1cc(C(F)(F)F)nc2c(C(F)(F)F)cccc12)C1CCCCN1 (stereo not drawn) | Plasmodium falciparum | cell growth | HB3 |  |  | IC50 | 10 nM |
| COc1ccc2c(c1)c(CCN1CCOCC1)c(C)n2C(=O)c1cccc(Cl)c1Cl | TC-71 | trypan blue exclusion |  | 10 µM, 48 h |  | viability decrease | ~30% |

Repeated from above:
| SMILES | tested on | test | test system | setting | scale | quantity | result |
| --- | --- | --- | --- | --- | --- | --- | --- |
| O=C1NC(=O)C(C2C3=C(CCCC3=O)Oc3ccc([N+](=O)[O-])cc32)C(=O)N1 (stereo not drawn) | mouse preadipocytes | qPCR, item: HSL |  | IC20, 14 days, adipogenic induction | baseline: untreated cells | mRNA level | decreased |
| CNc1ncc2c(/C=C/C(=O)N3CCC4(CC3)OCCO4)nn(Cc3cccc(C)c3)c2n1 | EPC-2 pre-malignant | cell viability, PrestoBlue |  | 120 h |  | EC50 | 910 nM |
